Assay results from different studies.
Compare with care: the assays were run in different laboratories. Values joined by “and” are separate records of one study, mostly repeats; a detail may differ. ± marks the error that the study gave. Converted amounts (≈) assume the structure as drawn.

Compound = Cc1cc(C(C)(C)C)ccc1OCCOCCN(C)C; assay = locomotor activity in dark; test system = zebrafish larvae, 7 dpf; setting = 10 µM, minute 1, dark phase; measurement = larval motion; value = 5.8 ± 0.7 pixels/frame
Compound = COC1CN([C@H]2CC[C@H]([C@@]3(C)Oc4c(Cl)cc(C(=O)NCc5c(SC)cc(C)[nH]c5=O)c(C)c4O3)CC2)C1; assay = RNA-seq, refers to: VLDLR mouse homolog; test system = mouse, HT-1376 xenograft, whole blood; setting = dose not given; scale = baseline: vehicle; measurement = log2 fold change; value = 1.22
Compound = Cn1ncc2cc(-c3cncc(Cl)c3N3CCC4(CCNC4=O)CC3)ccc21; target or system = LS174T; assay = gene expression, microarray, refers to: SLC2A4 (GLUT4) mRNA; setting = concentration not given, 24 h; scale = baseline: untreated cells; measurement = log2 fold change; value = 2.68
Compound = C=CC(=O)Nc1cccc(Cn2ncc3cnc(Nc4cnn(CCOC)c4)nc32)c1; target or system = human IKK-alpha; assay = KINOMEscan; setting = 100 nM; scale = baseline: control; measurement = binding; value = 100%
Compound = Cc1cc(C)cc(NC(=O)CCN2CCCCCC2)c1; test system = zebrafish larvae, 7 dpf; setting = 10 µM, minute 6; measurement = larval motion; value = 21.8 ± 2.6 pixels/frame
Compound = CC(C)c1ccc(N(C)c2ccc3c(c2)OCC[C@H]3CNc2cnccc2C(=O)O)cc1; target or system = G-361; assay = cell growth or viability, ATP luminescence; setting = 7 days; measurement = IC50; value = ≥ 10 µM
Compound = CN1CCCNC(=O)c2cccc(c2)C(=O)NCCCN(C)CCCNc2cccc3c2C(=O)c2cccc(c2C3=O)NCCC1; target or system = SAS; assay = RNA-seq, refers to: MT-ND4L mRNA; setting = 1 µM, 6 h; scale = baseline: untreated cells; measurement = log2 fold change; value = -2.11
Compound = [2H]C([2H])([2H])C1(C([2H])([2H])[2H])NC(=O)N(c2ccc(F)c(C(C)(F)F)c2)C1=O; target or system = Schistosoma mansoni; test system = adult stage, infected mice; setting = oral, 25 mg/kg; scale = baseline: untreated infected; measurement = worm burden reduction; value = 100%
Compound = CCN(C(=O)c1cc(F)ccc1Oc1nncnc1N1CCC2(C1)CN([C@H](CCCN(C)CCOC)C(C)C)C2)C(C)C; target or system = SF-295; test system = brain; setting = 168 h; measurement = GI50; value = > 10 µM
Compound = Cc1cc(OCCOCCn2ccnc2)cc(C(C)C)c1; assay = locomotor activity in dark; test system = zebrafish larvae, 7 dpf; setting = 10 µM, minute 5, dark phase; measurement = larval motion; value = 1.3 ± 0.6 pixels/frame
Compound = CC(=O)[O-].O.O.O.O.[Co+2].[O-]c1ccc(Br)cc1C=NCCN1CCOCC1; assay = nitric oxide scavenging; setting = 160 µM; measurement = inhibition; value = 34.4%
Compound = Nc1ncc(-c2cc(-c3cnn(CC(F)(F)F)c3)ncc2F)nc1C(=O)NC1CNCC(F)C1 (centres unmarked); target or system = DLK; assay = KINOMEscan competition binding; setting = 1 µM; scale = baseline: DMSO control; measurement = remaining binding; value = 0.8%
Compound = C=CC(=O)N1[C@H](c2ccc3c(c2)OCO3)c2[nH]c3ccccc3c2C[C@@H]1C(=O)N1CCN(C)CC1; target or system = human cyclin E1 N112C-3xFLAG:CDK2; assay = co-IP with TMT proteomics, refers to: RPSA; setting = concentration not given, P08865; scale = baseline: wild type DMSO; measurement = relative co-enrichment; value = 104%
Compound = C=C(NC(=O)c1csc(-c2nc3c(cc2O)-c2nc(cs2)C(=O)NC(C(C)O)C(=O)NC(=C(C)OC)c2nc(cs2)C(=O)NC2c4nc(cs4)C(=O)NC(COC(=O)c4c5c6c(cccc6n4O)COC(=O)C(OC4CC(C)(O)C(N(C)C)C(C)O4)C2OC5)c2nc-3cs2)n1)C(N)=O (centres unmarked); target or system = Streptococcus agalactiae; assay = microbial growth; setting = clinical isolate; measurement = MIC90; value = 0.125 µg/mL (≈ 0.087 µM)
Compound = CCc1cc(OCCOCCN(C)C)ccc1Cl; assay = locomotor activity in dark; test system = zebrafish larvae, 7 dpf; setting = 10 µM, minute 1, dark phase; measurement = larval motion; value = 4.5 ± 1.8 pixels/frame
Compound = COc1cc(O)ccc1CCC(c1ccc(O)cc1)c1cc2c(c(C)c1O)OC(c1ccc(O)cc1)CC2 (mixture of isomers); assay = refers to: LTB4 isomers; test system = human whole blood; setting = 30 µM, added: Escherichia coli; measurement = amount; value = 127 ± 44 pg/mL blood
Compound = CNS(=O)(=O)Nc1nccc(Cc2c(C)c3ccc(Oc4ncccc4F)cc3oc2=O)c1F; target or system = SK-PN-DW; assay = cell viability, CellTiter-Glo; setting = 7 days; measurement = IC50; value = > 1 µM
Compound = c1ccc(-c2n[nH]cc2-c2ccnc3ccccc23)nc1; target or system = MKK2 (Candida albicans); assay = kinase binding, MIB/MS competition; test system = Candida albicans lysate; setting = 10 µM; scale = baseline: DMSO; measurement = log2 fold change; value = -0.03
Compound = Cc1ncsc1-c1ccc(C(C)NC(=O)C2CC(O)CN2C(=O)C(NC(=O)CCCCCCCCCCN2CCCC(Nc3ncc(Cl)c(Nc4ccccc4S(=O)(=O)C(C)C)n3)C2)C(C)(C)C)cc1 (centres unmarked); target or system = 22Rv1; assay = RNA-seq, refers to: ZFPM1 mRNA; setting = concentration not given; scale = baseline: DMSO; measurement = log2 fold change; value = -1.69
Compound = CN(C)C(=O)c1ccnc(N2Cc3cn(Cc4ccc(F)cc4F)nc3C2)n1; test system = mouse, hippocampal slice, Schaffer collaterals; setting = dose not given, interstimulus interval 500; scale = baseline: second over first response; measurement = paired-pulse ratio; value = 1.2 and 1.11 and 1.23 and 1.05 and 1.19 and 1.49

A few entries again:
Compound = Cc1cc(OCCOCCn2ccnc2)cc(C(C)C)c1; assay = locomotor activity in dark; test system = zebrafish larvae, 7 dpf; setting = 10 µM, minute 5, dark phase; measurement = larval motion; value = 1.3 ± 0.6 pixels/frame
Compound = CC(=O)[O-].O.O.O.O.[Co+2].[O-]c1ccc(Br)cc1C=NCCN1CCOCC1; assay = nitric oxide scavenging; setting = 160 µM; measurement = inhibition; value = 34.4%
